Measurements of several laboratories.
A part holds a random share of what one study measured. Positions count from the first letter of the parent shown.

Series 1 — technique: RNAcompete; molecule type: RNA; medium: in vitro; tested at: 20 nM; setting: 7-mer, probes averaged, single round; relative to: mean of 7-mers; reading: higher = stronger binding
Target: PABPC1L2, full length, GST fusion (mouse, UniProt A0ABA7IW68)
Construct (chain): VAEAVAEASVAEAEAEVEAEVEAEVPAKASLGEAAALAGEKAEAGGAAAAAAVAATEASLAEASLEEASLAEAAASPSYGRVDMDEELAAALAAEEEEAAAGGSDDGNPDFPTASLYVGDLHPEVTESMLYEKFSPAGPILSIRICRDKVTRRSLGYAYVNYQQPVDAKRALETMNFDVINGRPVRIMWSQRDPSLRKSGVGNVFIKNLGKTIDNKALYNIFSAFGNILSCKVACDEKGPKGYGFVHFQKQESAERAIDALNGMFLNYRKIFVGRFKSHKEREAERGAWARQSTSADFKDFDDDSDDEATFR
Oligonucleotide | 7-mer Z-score
AGAUCGA | -0.204
UGUCGGA | -0.151
CAACCGG | -0.0736
UAUGCAC | -0.179
GCUGGGA | 0.209
GCCUGGC | -0.213
UGAUCGA | -0.0554
UGGUGAG | -0.139
GCUACCC | -0.249
GUUAGCG | -0.155
AGCGCGC | -0.209
AGCAAAU | 0.149
UCAUAAG | -0.126
AUCUCCC | -0.358
GCUCGGA | -0.106
GUGAUUC | -0.204
ACGCUUG | -0.179

Series 2 — technique: DHFR PCA, deep sequencing; medium: yeast; added: (+)-ABA 0.11 µM; relative to: wild-type fitted maximum; reading: higher = stronger binding
Target: ABI1, truncated, D143A, DHFR fusion (Arabidopsis thaliana)
Setting: methotrexate growth selection, single substitutions
Starting sequence: PYL1, truncated, DHFR fusion (Arabidopsis thaliana); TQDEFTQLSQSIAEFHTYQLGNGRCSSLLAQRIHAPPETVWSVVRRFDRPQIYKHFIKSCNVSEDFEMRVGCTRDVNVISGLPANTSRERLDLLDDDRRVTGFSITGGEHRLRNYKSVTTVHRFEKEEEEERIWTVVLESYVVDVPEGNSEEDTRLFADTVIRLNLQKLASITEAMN
Variant | relative binding score
I162D | 0.803%
G23D | 9.96%
F56K | -3.84%
V78Q | 12.1%
T106R | -4.18%
K168H | 26.9%
Q167H | 11%
V43I | 48%
Q7L | 26%
R32T | 40.1%
R46W | -1.56%
R46F | -9.46%
H55Y | 19.2%
L82E | 8.52%
T160L | 9.94%
V121H | -6.49%
P83A | 27%
F56S | -2.01%
R123I | -9.24%
L166M | 11.4%
V121I | 10.8%

Series 3 — target: CCNE1, cyclin fold, Cln2 fusion (human); technique: yeast growth competition, sequencing; medium: yeast; setting: strong parent motif; relative to: not given; reading: higher = stronger binding
Starting sequence: CDKN1A docking peptide (human); SKACRRLFGPVDS; partner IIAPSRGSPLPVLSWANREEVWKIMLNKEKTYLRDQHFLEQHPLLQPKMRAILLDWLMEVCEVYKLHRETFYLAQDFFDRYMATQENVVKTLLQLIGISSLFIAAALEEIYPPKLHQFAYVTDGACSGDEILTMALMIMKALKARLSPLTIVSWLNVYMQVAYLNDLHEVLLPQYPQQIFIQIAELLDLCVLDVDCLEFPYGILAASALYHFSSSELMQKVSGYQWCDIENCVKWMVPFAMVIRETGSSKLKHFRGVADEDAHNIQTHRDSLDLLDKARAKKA
Variant | normalised enrichment score
F8N | 0.451
R6N | 3.98
A3T | 3.67
C4V | 5.74
G9Y | 5.97
L7W | 0.361
D12Q | 4.43
K2R | 5.26
C4S | 1.94
A3R | 0.1
D12C | 4.19
G9A | 6.06
C4E | -0.0619
D12T | 4.88
R5H | 0.403
G9S | 5.84
A3I | 2.07
G9W | 5.32
K2I | 3.49
L7R | -0.0598
R6T | 2.82
D12M | 4.6
P10G | 5.28
P10W | 2.77
D12R | 3.05

Series 4 — technique: RNA Bind-n-Seq; molecule type: RNA; medium: in vitro; tested at: not given; relative to: input RNA pool; reading: higher = stronger binding
Target: RING finger protein unkempt homolog, zinc fingers 1-6, GST-SBP tag (UNK, Homo sapiens, UniProt Q9C0B0, residues 30-357)
Sequence of UniProt Q9C0B0 (30-357, looked up): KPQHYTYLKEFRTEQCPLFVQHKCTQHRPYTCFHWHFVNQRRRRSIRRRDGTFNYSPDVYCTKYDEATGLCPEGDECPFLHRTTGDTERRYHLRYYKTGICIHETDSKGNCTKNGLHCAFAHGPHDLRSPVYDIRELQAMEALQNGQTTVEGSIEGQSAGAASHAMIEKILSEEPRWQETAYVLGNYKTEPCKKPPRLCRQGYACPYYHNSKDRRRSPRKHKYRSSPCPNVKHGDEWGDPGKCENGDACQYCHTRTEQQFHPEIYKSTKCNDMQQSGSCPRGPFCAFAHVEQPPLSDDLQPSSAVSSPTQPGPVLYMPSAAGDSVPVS
Setting: RNA with constant flanks, human-mouse chimeric sites, ends assumed
Constant ends, left off below: GGGAGUUCUACAGUCCGACGAUC … CAACAGAGGAUUGAGCAUCA
Oligonucleotide | bound/input enrichment [ratio]
AGGAGGAGGUUAAAGGGUGAGAGUGGGGUGGAAGACUGUGUCAUGGCUCUGGAGACACUGUUCAGUGUCCUGCUUUCUCUGUGCAGACUUAUGGCUCCUUACACGCCCUUUCUGACUGAG | 0.054
UCUUAACUUAUUCAUUUAACUUAUUUUUAUAGCUAGAUAAAUAUUGUUAGUCUUAGAGAGUAGUUCACAUUUUUUGAGAAGCAUGCCCUCCCUGUCCAUUGGGCCCAUAACAUGACCCAG | 10.5
GGGACUGAUUCAUCCCAAGGACAGGCCACCCCAUUUGAUGCCUGGACUGAUGACAGUAUGUUAGGGCCUAGUCAAAAUGUUGAAGCUGAGUCAAUUCAAGAUAAUGCGAGUAUGGAAGAG | 0.872
GGCUGCUGGUGACUGUCCUGGAGUGGCUGGAGUUCCCCCGGAACCUGGCGCAGGUUAAUUUUAGAAAAUGCCAAGUAGGAAGUUUGUUGAGGGUGAAGUGGUCAGAGGCCGAUGGCCUGG | 3.33
UUGAAAACUGAUUCAAGUAAGUUUGAGUAUCACAAUGUUAGCUUUCUAAUUCCACACAAGUACUUGGUUUUUACAGUUUAUAAUCUGACAUCACCCCAGCGCCAUUUAGAUCAGCUUACU | 1.24
UAUCCAACUUUCUUGCCACAUUUUGAAUUCCAAGACAUUAUUCCUCCAGAUGACUUCCUAACGAGUGAUGAAGAAGUAGAUUUGGUUUUAUUUGGAACUAUGAGAGGACAAGUUGUUGGA | 0.465
GUAUUUGUGCGCUCCCCACUCGUGUUUUUAAGUGUAUUUUUAUAAGAUACAUGUAUUUACAAUUGAGCUUUUGUUACAUAAUGCUGAAAUGCUACUGGAGAUUAUGAAAAAAUGUUAAAU | 0.187
AAAGAACCUCUCUCUGAUGAAGAUGAGGAAGACAAUGAUGAUGUUGAACCCAUUUCUGAAUUUCGAUUUGUGCCUAGUGAUAAGUCAGCGUUGGAGGCGAUGUUCACAGCAAUGUGUGAG | 0.429

A few entries again (series 2):
Variant | relative binding score
F56K | -3.84%
V78Q | 12.1%
T106R | -4.18%
K168H | 26.9%
Q167H | 11%
V43I | 48%
Q7L | 26%
R32T | 40.1%
R46W | -1.56%
